Measurements of several laboratories.
pIC50: −log10 of the molar value.

Under “log2 fold change”, `CN1CCCNC(=O)c2cccc(c2)C(=O)NCCCN(C)CCCNc2cccc3c2C(=O)c2cccc(c2C3=O)NCCC1` is recorded as 1.47 (SAS; RNA-Seq, measured: CYB5D2 mRNA; 1 µM, 6 h; baseline: untreated cells).
With `COC(=O)c1cc(NC2=NC(=O)C(=Cc3ccc(N(C)C)cc3)S2)ccc1OC(C)=O` the metabolite level was 0.37 fold change (MCF7; GC-MS, measured: Oxalic acid; 1 µM; baseline: DMSO).
`COc1cc(-c2cc3c(N4CCC[C@H](C(=O)NCc5ccc(OC(F)(F)F)cc5)C4)ncnc3[nH]2)cc(OC)c1OC` has an inhibition of 84.9% (NCI-H2228; cell growth or viability, MTT; 5 µg/mL, 72 h).
For `Cc1ncsc1-c1ccc(C(C)NC(=O)C2CC(O)CN2C(=O)C(NC(=O)CCCCCCCCCCN2CCCC(Nc3ncc(Cl)c(Nc4ccccc4S(=O)(=O)C(C)C)n3)C2)C(C)(C)C)cc1` (stereo not shown), “log2 fold change” read -1.17 (22Rv1; RNA-seq, measured: POLI mRNA; concentration not given; baseline: DMSO).
The fold regulation of `CCN(CC)CC(=O)Nc1cccc(-n2cc(-c3ccc4ccc(-c5cn(-c6cccc(NC(=O)CN(CC)CC)c6)nn5)cc4c3)nn2)c1` is reported as -3.05 (RCC4; PCR angiogenesis array, measured: IL1B; 5 x IC50, 6 h, normoxia; baseline: untreated).
`Cn1ncc2cc(-c3cncc(Cl)c3N3CCC4(CCNC4=O)CC3)ccc21` — result for “log2 fold change”: 3 (LS174T; gene expression, microarray, measured: PPP1R3C mRNA; concentration not given, 24 h; baseline: untreated cells).
`O=C(NCc1ccc(OC(F)(F)F)cc1)[C@H]1CCCN(c2ncnc3[nH]c(-c4ccc(N5CCOCC5)cc4)cc23)C1` gave an inhibition of 81.7% (NCI-H2228; cell growth or viability, MTT; 5 µg/mL, 72 h).
With `CO[C@@H]1[C@@H](OC(N)=O)[C@@H](O)[C@H](Oc2ccc3c(O)c(NC(=O)c4ccc(O)c(CC=C(C)C)c4)c(=O)oc3c2C)OC1(C)C` the colony survival was 0.339% (DLD-1 BRCA2-/-; 100 µM, replicate A; baseline: untreated).
`CCN(C(=O)c1cc(F)ccc1Oc1nncnc1N1CCC2(C1)CN([C@H](CCCN(C)CCOC)C(C)C)C2)C(C)C` gave a GI50 of > 10000 nM (A204; muscle; 168 h).
For `CN1CCN(C(=O)c2ccc(-c3cc4c(N5CCC[C@H](C(=O)NCc6ccc(OC(F)(F)F)cc6)C5)ncnc4[nH]3)cc2)CC1`, the inhibition was 62.8% (NCI-H2228; cell growth or viability, MTT; 0.2 µg/mL, 72 h).
With `CNS(=O)(=O)Nc1nccc(Cc2c(C)c3ccc(Oc4ncccc4F)cc3oc2=O)c1F` the pIC50 was < 6.00 (ARH-77; cell viability; 7 days).
With `COc1ccc(-c2cc3c(N4CCC[C@H](C(=O)NCc5ccc(OC(F)(F)F)cc5)C4)ncnc3[nH]2)cn1` the inhibition was 61.9% (NCI-H2228; cell growth or viability, MTT; 0.2 µg/mL, 72 h).
For `CC(C)c1ccc(N(C)c2ccc3c(c2)OCC[C@H]3CNc2cnccc2C(=O)O)cc1`, the pIC50 was 7.93 (HuH-1; cell growth or viability, ATP luminescence; 7 days).

Repeated from above:
`Cn1ncc2cc(-c3cncc(Cl)c3N3CCC4(CCNC4=O)CC3)ccc21` — result for “log2 fold change”: 3 (LS174T; gene expression, microarray, measured: PPP1R3C mRNA; concentration not given, 24 h; baseline: untreated cells).
`O=C(NCc1ccc(OC(F)(F)F)cc1)[C@H]1CCCN(c2ncnc3[nH]c(-c4ccc(N5CCOCC5)cc4)cc23)C1` gave an inhibition of 81.7% (NCI-H2228; cell growth or viability, MTT; 5 µg/mL, 72 h).
